Measured values of several laboratories.
Each line is one published result; not all experiments were run side by side. Several values in a cell are separate wells, animals, samples, runs or records. ≈ marks a conversion by molar mass, not a printed value.

Cc1c2c(nn1C)CSCc1cc(n(C)n1)CSc1cc(c3ccccc3c1)OCCCc1c(C(=O)O)n(C)c3c-2c(Cl)ccc13 gave a fold change of 51.6 (Staphylococcus aureus; label-free quantitative proteomics, item: IlvC protein; SA113; concentration not given; reference: untreated control).
Cc1c([N+](=O)[O-])oc2ccc3ccccc3c12 has an MIC90 of 0.5 µg/mL (≈ 2.2 µM) (Mycolicibacterium aurum; REMA; ATCC 23366).
For COc1cc(/C=N\NC(=O)c2ccc(Br)cc2)ccc1OC(=O)c1cccs1, the IC50 was 3400 nM (Tetrahymena pyriformis and Klebsiella pneumoniae; virulence in co-culture).
For CCOC(=O)C1(Cc2ccccc2)CN(c2ccccc2)Cc2nnn(Cc3ccc(Cl)cc3)c21 (stereo not drawn), the EC50 was > 100000 nM (human adenovirus 2; viral replication; HEL).
For COc1cccc(C(=O)NN(C(=O)c2cc(C)cc(C)c2)C(C)(C)C)c1C, adult lifespan read “decreased” (Anopheles gambiae s.l.; pyrethroid-resistant; topical, 0.4 %; reference: control).
The MIC90 of COc1ccc2c(ccc3oc([N+](=O)[O-])c(C)c32)c1 is reported as > 32 µg/mL (Mycolicibacterium aurum; REMA; ATCC 23366).
The IC50 of CS(=O)(=O)c1cccc(-c2nnc(NC(=O)c3ccc(-c4ccccc4)cc3)o2)c1 is reported as 800 nM (Tetrahymena pyriformis and Klebsiella pneumoniae; virulence in co-culture).
O=C(O)CN(CC(=O)O)CC(=O)O has a meropenem MIC of 1 µg/mL (Klebsiella aerogenes; VIM-1 producer; 32 µg/mL, added: meropenem).
The IC50 of COc1ccc(C(=O)O)cc1NC(=O)/C=C/c1ccc(-c2ccccc2C)cc1 is reported as 290 nM (Tetrahymena pyriformis and Klebsiella pneumoniae; virulence in co-culture).
CCCCCCCSc1ccc(CC(C)NCC(O)c2cccc(Cl)c2)cc1 (stereo not drawn) has an IC50 of > 20000 nM (Plasmodium yoelii; 17XL; 384-well).
For COc1ccc2ccc3oc([N+](=O)[O-])cc3c2c1Br, the MIC90 was 0.09 µg/mL (≈ 0.279 µM) (Klebsiella aerogenes; REMA).
For CC(C)C1NC(=O)C(C(=O)NC(C(=O)NC2C(=O)N3C2SC(C)(C)C3C(=O)O)c2ccccc2)=C1O (stereo not drawn), the MIC was 25 µg/mL (≈ 48.4 µM) (Escherichia coli; broth microdilution; JW0790-2 fiu deletion mutant; ferric iron uptake gene).
With C[C@@H]1O[C@@H](O[C@H]2C[C@@H](O)[C@]3(CO)[C@H]4[C@H](O)C[C@]5(C)[C@@H](C6=CC(=O)OC6)CC[C@]5(O)[C@@H]4CC[C@]3(O)C2)[C@H](O)[C@H](O)[C@H]1O the adult length was 10.1 mm (Oncopeltus fasciatus; diet, concentration not given).
CC[C@H](C)[C@H](NC(=O)[C@H](C)NC(=O)[C@H](CCCCN)NC(=O)[C@H](CC(C)C)NC(=O)[C@H](C)NC(=O)[C@@H](NC(=O)[C@H](Cc1c[nH]cn1)NC(=O)[C@H](CC(C)C)NC(=O)[C@@H](NC(=O)[C@@H](NC(=O)[C@H](CCCCN)NC(=O)[C@H](C)NC(=O)[C@H](C)NC(=O)[C@H](CO)NC(=O)[C@H](CCCCN)NC(=O)[C@H](Cc1ccccc1)NC(=O)[C@@H](NC(=O)[C@H](CCCCN)NC(=O)[C@H](CC(C)C)NC(=O)[C@H](Cc1ccccc1)NC(=O)[C@H](CO)NC(=O)[C@H](CCCCN)NC(=O)[C@H](Cc1c[nH]c2ccccc12)NC(=O)[C@H](CCCCN)NC(C)=O)[C@@H](C)O)[C@@H](C)O)C(C)C)[C@@H](C)O)C(=O)N[C@@H](CO)C(=O)N[C@@H](CO)C(N)=O has an MIC range of 4 µg/mL (≈ 1.36 µM) (Pseudomonas aeruginosa; ATCC 27853).
For COC1=CC(c2ccc[nH]2)=N/C1=C\c1[nH]c(Cc2ccccc2)cc1Cc1ccccc1.Cl, the parasitaemia reduction was 100% (Plasmodium yoelii; CF1 mouse; oral, 80 mg/kg single dose, day 5).
With CNC(C)C1CCC(N)C(OC2C(N)CC(N)C(OC3OCC(C)(O)C(NC)C3O)C2O)O1 (stereo not drawn) the survival was 0% and 1.04% (Acinetobacter baumannii; 19606, biofilm; 100 µg/mL, without HNP1).
COc1ccc2c(ccc3oc([N+](=O)[O-])c(OC)c32)c1 has an MIC90 of > 32 µg/mL (Klebsiella aerogenes; REMA).
The EC50 of CCOC(=O)C1(Cc2ccccc2)CN(c2ccccc2)Cc2nnn(CCc3ccccc3OC)c21 (stereo not drawn) is reported as > 100000 nM (human adenovirus 2; viral replication; HEL).
With O=[N+]([O-])c1cc2c(ccc3c2ccc2cc([N+](=O)[O-])oc23)o1 the MIC90 was 0.5 µg/mL (≈ 1.68 µM) (Mycolicibacterium aurum; REMA; ATCC 23366).
With CC[C@H](C)[C@H](NC(=O)[C@H](CC(C)C)NC(=O)[C@@H]1CCCN1C(=O)[C@@H](N)CC(C)C)C(=O)N[C@H](C(=O)N[C@@H](Cc1ccccc1)C(=O)N[C@@H](CC(C)C)C(=O)N[C@@H](CCCNC(=N)N)C(=O)N[C@@H](CC(N)=O)C(=O)N[C@@H](CCCNC(=N)N)C(=O)N[C@@H](CC(C)C)C(=O)N[C@@H](CCCCN)C(=O)N[C@@H](Cc1ccc(O)cc1)C(=O)O)[C@@H](C)CC the MBC was 64 µg/mL (≈ 38.6 µM) (Staphylococcus haemolyticus).
The parasitaemia reduction of COC1=CC(c2ccc[nH]2)=N/C1=C\c1cc(-c2ccc(OC)cc2)c(C)[nH]1.Cl is reported as 32.3% (Plasmodium yoelii; CF1 mice; oral, 10 mg/kg daily for 4 days, day 5; reference: vehicle).
With COc1ccccc1CNC(=O)CCn1c(=O)[nH]c2ccsc2c1=O the inhibition was 2% (Plasmodium yoelii; oxygen consumption; 17XL; 2 µM).
CCOC(=O)/C(C#N)=C(\O)c1ccc(NC(=O)c2cccs2)cc1 has an IC50 of 330 nM (Tetrahymena pyriformis and Klebsiella pneumoniae; virulence in co-culture).
COC1=CC(c2ccc[nH]2)=N/C1=C\c1[nH]c(Cc2ccc(OC)cc2)cc1Cc1ccc(OC)cc1.Cl gave a parasitaemia reduction of 78.5% (Plasmodium yoelii; CF1 mice; oral, 10 mg/kg daily for 4 days, day 5; reference: vehicle).
O=C(COC(=O)c1n[nH]c2ccccc12)Nc1ccc(N2CCCCC2)cc1 has an IC50 of 690 nM (Tetrahymena pyriformis and Klebsiella pneumoniae; virulence in co-culture).
[O-][N+]1=C(c2ccc(Cl)cc2)C2=NCCN2c2ccccc21 gave an MIC50 of ≤ 0.06 µg/mL (Parabacteroides distasonis and Bacteroides spp.; bacterial growth).
With NC[C@H]1O[C@H](O[C@H]2[C@H](O)[C@@H](O[C@H]3O[C@H](CO)[C@@H](O)[C@H](N)[C@H]3O)[C@H](N)C[C@@H]2N)[C@H](O)[C@@H](O)[C@@H]1O the survival was 0.674% and 1.35% and 1.26% and 0.539% (Acinetobacter baumannii; colony counting; 19606, biofilm; 50 µg/mL, 12 h, without HNP1).
Under “LS mean viral load change”, CS(=O)(=O)CCCn1c(Cn2c(=O)n(CC(F)(F)F)c3ccncc32)cc2cc(Cl)ccc21 is recorded as -2.76 log10 copies/mL (respiratory syncytial virus; RT-qPCR; hospitalized infants 1-24 months, nasal swab; oral, 2, 1.5 or 1 mg/kg daily, day 4, low dose by age cohort; reference: baseline).
The colony diameter of C=C(CN(C(=O)c1c(C(F)F)nn(C)c1F)C1CC1)c1ccc(Cl)cc1Cl is reported as 10 mm and 11 mm and 13 mm and 12 mm (Fusarium oxysporum; 1.56 mg/L).
The fold enrichment of Nc1ncnc2c1ncn2[C@@H]1O[C@@H]2COP(=O)(O)O[C@H]3[C@@H](O)[C@H](n4cnc5c(=O)[nH]cnc54)O[C@@H]3COP(=O)(O)O[C@H]2[C@H]1O is reported as 1.46 (West Nile virus; RNA sequencing Reactome analysis, item: Signal Transduction (R-HSA-162582); HFF-1; concentration not given, upregulated pathways, added: West Nile virus infection; reference: WNV-infected without compound).
With CSc1nc(O)n2nccc2n1 the IC50 was 540 nM (Tetrahymena pyriformis and Klebsiella pneumoniae; virulence in co-culture).
Cn1c(=O)ccc2ccc(F)c(CCNC[C@H]3CN(c4cnc5c(n4)NC(=O)CO5)C(=O)O3)c21 has an MIC90 of 0.25 µg/mL (≈ 0.534 µM) (Salmonella sp.).
The combination index of COC(=O)N[C@H](C(=O)N1CCC[C@H]1c1ncc(-c2ccc(-c3ccc(-c4cnc([C@@H]5CCCN5C(=O)[C@@H](NC(=O)OC)C(C)C)[nH]4)cc3)cc2)[nH]1)C(C)C is reported as 0.58 (Hepatitis C virus; replicon cells; 90% effect level, added: IFN-alpha, ratio 1:1).
With COc1cc(NC(C)CCCN)c2ncccc2c1 (stereo not drawn) the inhibition was < 0% (Dengue virus type 2; replicon Renilla luciferase; BHK-21 DENV2 replicon cells; 50 µM, 24 h).
With COC1=CC(c2ccc[nH]2)=N/C1=C\c1[nH]c(C)cc1Cc1ccccc1.Cl the parasitaemia reduction was 100% (Plasmodium yoelii; CF1 mice; oral, 10 mg/kg daily for 4 days, day 5; reference: vehicle).
N=C(N)c1ccc(OCc2ccc(-c3ccccc3)cc2COc2ccc(C(=N)N)cc2)cc1 gave an FICI of ≤ 0.031 (Escherichia coli; checkerboard; BW25113 mcr-1 plasmid; unit not given, added: rifampicin; lower = stronger synergy).
